Published values gathered from unrelated publications.
± gives the spread as reported. Values after ≈ are worked out from the molar mass of the structure shown.

Compound | target or system | assay | system | conditions | measurement | value
Nc1nc2c(-c3c(C(F)(F)F)cc4c(N5CCNCC5)nc(OCC56CCCN5CCC6)nc4c3F)ccc(F)c2s1 | GTPase KRas, GDP-bound (KRAS, Homo sapiens, UniProt P01116, G12D) | SPR | – | – | Kd | 0.009 µM
C[n+]1ccc(/C=N/NC(=O)c2cncc(C(=O)N/N=C/c3cc[n+](C)c4ccccc34)n2)c2ccccc21 | MYC promoter G4 DNA | binding, native ESI-MS | 100 mM trimethylammonium acetate | 1 mM KCl | Kd | 0.12 µM
CC(=O)N[C@@H]1[C@@H](O[C@@H]2O[C@H](C(=O)O)[C@@H](O[C@@H]3O[C@H](COS(=O)(=O)O)[C@@H](OS(=O)(=O)O)[C@H](O[C@@H]4O[C@H](C(=O)O)[C@@H](O[C@@H]5O[C@H](COS(=O)(=O)O)[C@@H](OS(=O)(=O)O)[C@H](O[C@@H]6O[C@H](C(=O)O)[C@@H](OS(=O)(=O)O)[C@H](OS(=O)(=O)O)[C@H]6OS(=O)(=O)O)[C@H]5NC(C)=O)[C@H](OS(=O)(=O)O)[C@H]4OS(=O)(=O)O)[C@H]3NC(C)=O)[C@H](OS(=O)(=O)O)[C@H]2OS(=O)(=O)O)[C@H](OS(=O)(=O)O)[C@@H](COS(=O)(=O)O)O[C@H]1N=[N+]=[N-] | CXCL12 (Homo sapiens, UniProt P48061) | ligand displacement, FP | – | – | Kd | 0.75 µM
COc1c2[nH]c(=O)c(=O)c2c(OC)c2c(=O)c3ccccc3c(=O)c12 | Aurora kinase A (AURKA, Homo sapiens, UniProt O14965) | binding, tryptophan fluorescence quenching | – | pH 7.5, 25 °C, AurA 3.0 µM | Kd | 10.7 ± 0.9 µM
N=C(N)NCCC[C@H](NC(=O)[C@H](CS)NC(=O)[C@H](Cc1ccc(O)cc1)NC(=O)[C@H](Cc1c[nH]c2ccccc12)NC(=O)[C@H](CCCNC(=N)N)NC(=O)[C@H](Cc1c[nH]c2ccccc12)NC(=O)CNC(=O)[C@H](Cc1c[nH]cn1)NC(=O)CNC(=O)CN)C(N)=O | supercoiled pUC19 plasmid DNA | tryptophan fluorescence | – | per base pair, 1 mM TCEP | Kd | 4.1 ± 0.5 µM
CCN(CC)CCCSC(=S)N1CCN(C(=O)/C=C/c2coc3cc(F)ccc3c2=O)CC1 | tomato spotted wilt virus | virus inactivation, half-leaf method | Nicotiana glutinosa | tested 31.25 to 500 µg/mL | EC50 | 236 ± 8.5 µg/mL (≈ 479 µM)
CCN(CC)CCO/N=C1/C=C2CCC3C(CC[C@]4(C)/C(=C/c5ccccn5)CCC34)[C@@]2(C)CC1 (some centres unmarked) | CYP17A1 (Homo sapiens, UniProt P05093) | binding, absorbance | – | – | Kd | 8.6 µM
Nc1ncnc2c1ncn2[C@@H]1O[C@H](CO)[C@@H](O[C@H]2O[C@H](CO)[C@@H](OP(=O)(O)O)[C@H](OP(=O)(O)O)[C@H]2O)[C@H]1O | Inositol 1,4,5-trisphosphate-gated calcium channel ITPR1, N-terminal region (Itpr1, Rattus norvegicus, UniProt P29994, del318-332) | [3H]IP3 competition binding | – | N-terminal fragment | Kd | 0.0105 µM
Cc1ncc(Cc2csc(C=NNC(=O)Cc3cccnc3)c2C)c(N)n1 (mixture of isomers) | Thiamine transporter ThiT (Lactococcus lactis subsp. cremoris, UniProt A2RI47) | binding, ITC | – | – | Kd | 3.02 µM
C=C1C(=O)OC[C@H]1[C@H](c1cc(OC)c(OC)c(OC)c1)c1cc(OC)c2c(c1)OCO2 | CPT1A (Homo sapiens, UniProt P50416) | binding, MST | – | lysate | Kd | 1.62 µM
O=C1c2ccc(O)cc2-c2c(-c3ccc(O)cc3)oc3cc(O)cc1c23 | Heat shock protein HSP 90-alpha, N-terminal domain (HSP90AA1, Homo sapiens, UniProt P07900) | binding, fluorescence polarization | – | N-terminal domain fragment | Kd | 13.8 µM
CN(C)CCCSC(=S)N1CCN(C(=O)/C=C/c2coc3cc(F)ccc3c2=O)CC1 | tomato spotted wilt virus | viral infection, half-leaf method | Nicotiana glutinosa | 500 µg/mL | curative effect | 62.7 ± 3.8%
CCOc1cccc(C(=O)Nc2ccc(-c3nc4ccccc4[nH]3)cc2)c1 | Heat shock protein 90, N-terminal domain (Plasmodium falciparum, UniProt Q8IC05) | binding, SPR | – | – | Kd | 0.21 µM
CNc1ccccc1C(=O)O[C@H]1C[C@H](n2cnc3c(N)ncnc32)O[C@@H]1COP(=O)(O)OP(=O)(O)O | Unconventional myosin-Va (Gallus gallus, UniProt Q02440, D297C/G292C/I296C/S293C/V295G) | binding, ligand, stopped-flow FRET | – | 4 °C, with: 4 mM EDTA | Kd | 4.87 ± 0.33 µM

Some of these lines once more:
Compound | target or system | assay | system | conditions | measurement | value
CNc1ccccc1C(=O)O[C@H]1C[C@H](n2cnc3c(N)ncnc32)O[C@@H]1COP(=O)(O)OP(=O)(O)O | Unconventional myosin-Va (Gallus gallus, UniProt Q02440, D297C/G292C/I296C/S293C/V295G) | binding, ligand, stopped-flow FRET | – | 4 °C, with: 4 mM EDTA | Kd | 4.87 ± 0.33 µM
